Measured values of several laboratories.
Each line is one published result; not all experiments were run side by side.
T1: CREB1 1-100 (Rattus norvegicus); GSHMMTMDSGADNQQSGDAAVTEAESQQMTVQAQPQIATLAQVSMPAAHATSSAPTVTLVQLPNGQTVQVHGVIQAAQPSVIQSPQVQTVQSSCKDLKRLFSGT
B1: IGFBP7 30-159 Q150A (Homo sapiens, UniProt Q16270); chain DTCGPCEPASCPPLPPLGCLLGETRDACGCCPMCARGEGEPCGGGGAGRGYCAPGMECVKSRKRRKGKAGAAAGGPGVSGVCVCKSRYPVCGSDGTTYPSGCQLRAASQRAESRGEKAITAVSKGTCEQG
B2: NUB1 (Homo sapiens); chain GPGSMAQKKYLQAKLTQFLREDRIQLWKPPYTDENKKVGLALKDLAKQYSDRLECCENEVEKVIEEIRCKAIERGTGNDNYRTTGIATIEVFLPPRLKKDRKNLLETRLHITGRELRSKIAETFGLQENYIKIVINKKQLQLGKTLEEQGVAHNVKAMVLELKQSEEDARKNFQLEEEEQNEAKLKEKQIQRTKRGLEILAKRAAETVVDPEMTPYLDIANQTGRSIRIPPSERKALMLAMGYHEKGRAFLKRKEYGIALPCLLDADKYFCECCRELLDTVDNYAVLQLDIVWCYFRLEQLECLDDAEKKLNLAQKCFKNCYGENHQRLVHIKGNCGKEKVLFLRLYLLQGIRNYHSGNDVEAYEYLNKARQLFKELYIDPSKVDNLLQLGFTAQEARLGLRACDGNVDHAATHITNRREELAQIRKEEKEKKRRRLENIRFLKGMGYSTHAAQQILLSNPQMWWLNDSNPETDNRQESPSQENIDRLVYMGFDALVAEAALRVFRGNVQLAAQTLAHNGGSLPPELPLSPEDSLSPPATSPSDSAGTSSASTDEDMETEAVNEILEDIPEHEEDYLDSTLEDEEIIIAEYLSYVENRKSATKKN
B3: PduD (Salmonella enterica, UniProt O31041); sequence looked up; chain MEINEKLLRQIIEDVLRDMKGSDKPVSFNAPAASTAPQTAAPAGDGFLTEVGEARQGTQQDEVIIAVGPAFGLAQTVNIVGLPHKSILREVIAGIEEEGIKARVIRCFKSSDVAFVAVEGNRLSGSGISIGIQSKGTTVIHQQGLPPLSNLELFPQAPLLTLETYRQIGKNAARYAKRESPQPVPTLNDQMARPKYQAKSAILHIKETKYVVTGKNPQELRVAL
B4: BZR1 1-109 (Arabidopsis thaliana, UniProt Q8S307); sequence looked up; chain MTSDGATSTSAAAAAAAAAAARRKPSWRERENNRRRERRRRAVAAKIYTGLRAQGDYNLPKHCDNNEVLKALCVEAGWVVEEDGTTYRKGCKPLPGEIAGTSSRVTPYS
B5: KMT2B 1-300 (Homo sapiens, UniProt Q9UMN6); chain MAAAAGGGSCPGPGSARGRFPGRPRGAGGGGGRGGRGNGAERVRVALRRGGGATGPGGAEPGEDTALLRLLGLRRGLRRLRRLWAGPRVQRGRGRGRGRGWGPSRGCVPEEESSDGESDEEEFQGFHSDEDVAPSSLRSALRSQRGRAPRGRGRKHKTTPLPPPRLADVAPTPPKTPARKRGEEGTERMVQALTELLRRAQAPQAPRSRACEPSTPRRSRGRPPGRPAGPCRRKQQAVVVAEAAVTIPKPEPPPPVVPVKHQTGSWKCKEGPGPGPGTPRRGGQSSRGGRGGRGRGRGGG
B6: cysJ 237-599 (Escherichia coli, UniProt P38038); sequence looked up; chain LVASLSVNQKITGRNSEKDVRHIEIDLGDSGMRYQPGDALGVWYQNDPALVKELVELLWLKGDEPVTVEGKTLPLNEALQWHFELTVNTANIVENYATLTRSETLLPLVGDKAKLQHYAATTPIVDMVRFSPAQLDAEALINLLRPLTPRLYSIASSQAEVENEVHVTVGVVRYDVEGRARAGGASSFLADRVEEEGEVRVFIEHNDNFRLPANPETPVIMIGPGTGIAPFRAFMQQRAADEAPGKNWLFFGNPHFTEDFLYQVEWQRYVKDGVLTRIDLAWSRDQKEKVYVQDKLREQGAELWRWINDGAHIYVCGDANRMAKDVEQALLEVIAEFGGMDTEAADEFLSELRVERRYQRDVY
B7: SSPN (Oryctolagus cuniculus, UniProt P82352); sequence looked up; chain MGKDRQPRGQQRQGDAAGPDDPGPKKGAGTREQRGEEEAQTCCGCRFPLLLALLQLALGVAVTVVGFLMASVSSSLLVRATPYWAGIIVCVVAYLGLFMLCVSYQVDERTCIQFSMKLLYFVLSALGLVVCVLAVAFAAHHYSLLTHLTCENAPDSCQCKLPSSEPLSRTFVYRDVTDCTSITGTFQVFLLVQMVLNLVCGLVCLVACFVMWKHRYQVFYVGVRMCPLSASEGQQQKV
B8: FERMT2 1-105 (Homo sapiens, UniProt Q96AC1); sequence looked up; chain MALDGIRMPDGCYADGTWELSVHVTDLNRDVTLRVTGEVHIGGVMLKLVEKLDVKKDWSDHALWWEKKRTWLLKTHWTLDKYGIQADAKLQFTPQHKLLRLQLPN
B9: RXRA (Homo sapiens, UniProt P19793); sequence looked up; chain MDTKHFLPLDFSTQVNSSLTSPTGRGSMAAPSLHPSLGPGIGSPGQLHSPISTLSSPINGMGPPFSVISSPMGPHSMSVPTTPTLGFSTGSPQLSSPMNPVSSSEDIKPPLGLNGVLKVPAHPSGNMASFTKHICAICGDRSSGKHYGVYSCEGCKGFFKRTVRKDLTYTCRDNKDCLIDKRQRNRCQYCRYQKCLAMGMKREAVQEERQRGKDRNENEVESTSSANEDMPVERILEAELAVEPKTETYVEANMGLNPSSPNDPVTNICQAADKQLFTLVEWAKRIPHFSELPLDDQVILLRAGWNELLIASFSHRSIAVKDGILLATGLHVHRNSAHSAGVGAIFDRVLTELVSKMRDMQMDKTELGCLRAIVLFNPDSKGLSNPAEVEALREKVYASLEAYCKHKYPEQPGRFAKLLLRLPALRSIGLKCLEHLFFFKLIGDTPIDTFLMEMLEAPHQMT
B10: Arc (Rattus norvegicus, UniProt Q63053); sequence looked up; chain MELDHMTTGGLHAYPAPRGGPAAKPNVILQIGKCRAEMLEHVRRTHRHLLTEVSKQVERELKGLHRSVGKLENNLDGYVPTGDSQRWKKSIKACLCRCQETIANLERWVKREMHVWREVFYRLERWADRLESMGGKYPVGSEPARHTVSVGVGGPEPYCQEADGYDYTVSPYAITPPPAAGELPEQESVGAQQYQSWVPGEDGQPSPGVDTQIFEDPREFLSHLEEYLRQVGGSEEYWLSQIQNHMNGPAKKWWEFKQGSVKNWVEFKKEFLQYSEGTLSREAIQRELDLPQKQGEPLDQFLWRKRDLYQTLYVDAEEEEIIQYVVGTLQPKFKRFLRHPLPKTLEQLIQRGMEVQDGLEQAAEPSVTPLPTEDETEALTPALTSESVASDRTQPE
B11: RNASE1 mature P114G/H12A (Bos taurus, UniProt P61823); sequence looked up; chain KETAAAKFERQAMDSSTSAASSSNYCNQMMKSRNLTKDRCKPVNTFVHESLADVQAVCSQKNVACKNGQTNCYQSYSTMSITDCRETGSSKYPNCAYKTTQANKHIIVACEGNGYVPVHFDASV
B12: PSMG3 1-122 (Homo sapiens, UniProt Q9BT73); chain MEDTPLVISKQKTEVVCGVPTQVVCTAFSSHILVVVTQFGKMGTLVSLEPSSVASDVSKPVLTTKVLLGQDEPLIHVFAKNLVAFVSQEAGNRAVLLAVAVKDKSMEGLKALREVIRVCQVW
B13: WDR77 1-107 (Homo sapiens, UniProt Q9BQA1); sequence looked up; chain MRKETPPPLVPPAAREWNLPPNAPACMERQLEAARYRSDGALLLGASSLSGRCWAGSLWLFKDPCAAPNEGFCSAGVQTEAGVADLTWVGERGILVASDSGAVELWE
B14: PUM1 774-1186 (Homo sapiens, UniProt Q14671); chain LGGLTNGSGRYISAAPGAEAKYRSASSASSLFSPSSTLFSSSRLRYGMSDVMPSGRSRLLEDFRNNRYPNLQLREIAGHIMEFSQDQHGSRFIQLKLERATPAERQLVFNEILQAAYQLMVDVFGNYVIQKFFEFGSLEQKLALAERIRGHVLSLALQMYGCRVIQKALEFIPSDQQNEMVRELDGHVLKCVKDQNGNHVVQKCIECVQPQSLQFIIDAFKGQVFALSTHPYGCRVIQRILEHCLPDQTLPILEELHQHTEQLVQDQYGNYVIQHVLEHGRPEDKSKIVAEIRGNVLVLSQHKFASNVVEKCVTHASRTERAVLIDEVCTMNDGPHSALYTMMKDQYANYVVQKMIDVAEPGQRKIVMHKIRPHIATLRKYTYGKHILAKLEKYYMKNGVDLGPICGPPNGII
B15: SNAPC5 (Homo sapiens, UniProt O75971); chain MLSRLQELRKEEETLLRLKAALHDQLNRLKVEELALQSMISSRRGDEMLSSHTVPEQSHDMLVHVDNEASINQTTLELSTKSHVTEEEEEEEEEESDS
B16: TAF4 Q1 domain, 428-492 (Homo sapiens, UniProt O00268); chain GSHMTPTVLAPRLPQPPQNPTNIQNFQLPPGMVLVRSENGQLLMIPQQALAQMQAQAHAQPQTTMAPRP
UniProt O14744, sequence (whole entry, looked up): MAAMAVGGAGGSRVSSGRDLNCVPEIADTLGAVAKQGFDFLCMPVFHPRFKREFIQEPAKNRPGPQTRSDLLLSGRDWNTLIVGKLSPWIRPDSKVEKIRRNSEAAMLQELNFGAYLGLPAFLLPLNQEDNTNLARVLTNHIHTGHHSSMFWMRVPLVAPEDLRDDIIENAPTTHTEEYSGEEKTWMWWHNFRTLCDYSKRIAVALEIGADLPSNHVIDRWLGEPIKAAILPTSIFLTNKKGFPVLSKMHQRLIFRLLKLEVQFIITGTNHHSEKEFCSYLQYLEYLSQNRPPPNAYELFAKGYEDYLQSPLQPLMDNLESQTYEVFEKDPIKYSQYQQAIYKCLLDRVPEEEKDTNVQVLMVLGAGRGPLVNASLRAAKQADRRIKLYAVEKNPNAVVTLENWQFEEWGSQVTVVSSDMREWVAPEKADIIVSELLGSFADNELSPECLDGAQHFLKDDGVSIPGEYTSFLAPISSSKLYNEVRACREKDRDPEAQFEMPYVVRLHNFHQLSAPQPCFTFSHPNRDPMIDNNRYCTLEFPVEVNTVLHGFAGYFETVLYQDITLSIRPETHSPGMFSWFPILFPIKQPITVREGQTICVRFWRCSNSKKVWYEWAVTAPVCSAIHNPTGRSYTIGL
UniProt P17846, sequence (whole entry, looked up): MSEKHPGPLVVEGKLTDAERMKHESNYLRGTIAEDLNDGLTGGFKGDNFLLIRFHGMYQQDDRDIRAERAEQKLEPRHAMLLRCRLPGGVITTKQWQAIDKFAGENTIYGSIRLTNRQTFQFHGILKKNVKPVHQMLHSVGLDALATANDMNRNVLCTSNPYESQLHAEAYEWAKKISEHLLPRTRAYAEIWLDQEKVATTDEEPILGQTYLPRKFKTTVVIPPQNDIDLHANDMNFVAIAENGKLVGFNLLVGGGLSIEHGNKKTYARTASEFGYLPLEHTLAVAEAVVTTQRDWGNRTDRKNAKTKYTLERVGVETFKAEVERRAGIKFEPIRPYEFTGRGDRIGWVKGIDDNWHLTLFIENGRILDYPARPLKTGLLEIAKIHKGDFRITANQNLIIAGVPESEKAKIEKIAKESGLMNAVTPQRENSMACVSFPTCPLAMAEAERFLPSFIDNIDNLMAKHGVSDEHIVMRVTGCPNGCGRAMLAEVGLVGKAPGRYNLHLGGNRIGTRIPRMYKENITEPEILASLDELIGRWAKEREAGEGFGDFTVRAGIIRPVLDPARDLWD
UniProt Q28685, sequence (whole entry, looked up): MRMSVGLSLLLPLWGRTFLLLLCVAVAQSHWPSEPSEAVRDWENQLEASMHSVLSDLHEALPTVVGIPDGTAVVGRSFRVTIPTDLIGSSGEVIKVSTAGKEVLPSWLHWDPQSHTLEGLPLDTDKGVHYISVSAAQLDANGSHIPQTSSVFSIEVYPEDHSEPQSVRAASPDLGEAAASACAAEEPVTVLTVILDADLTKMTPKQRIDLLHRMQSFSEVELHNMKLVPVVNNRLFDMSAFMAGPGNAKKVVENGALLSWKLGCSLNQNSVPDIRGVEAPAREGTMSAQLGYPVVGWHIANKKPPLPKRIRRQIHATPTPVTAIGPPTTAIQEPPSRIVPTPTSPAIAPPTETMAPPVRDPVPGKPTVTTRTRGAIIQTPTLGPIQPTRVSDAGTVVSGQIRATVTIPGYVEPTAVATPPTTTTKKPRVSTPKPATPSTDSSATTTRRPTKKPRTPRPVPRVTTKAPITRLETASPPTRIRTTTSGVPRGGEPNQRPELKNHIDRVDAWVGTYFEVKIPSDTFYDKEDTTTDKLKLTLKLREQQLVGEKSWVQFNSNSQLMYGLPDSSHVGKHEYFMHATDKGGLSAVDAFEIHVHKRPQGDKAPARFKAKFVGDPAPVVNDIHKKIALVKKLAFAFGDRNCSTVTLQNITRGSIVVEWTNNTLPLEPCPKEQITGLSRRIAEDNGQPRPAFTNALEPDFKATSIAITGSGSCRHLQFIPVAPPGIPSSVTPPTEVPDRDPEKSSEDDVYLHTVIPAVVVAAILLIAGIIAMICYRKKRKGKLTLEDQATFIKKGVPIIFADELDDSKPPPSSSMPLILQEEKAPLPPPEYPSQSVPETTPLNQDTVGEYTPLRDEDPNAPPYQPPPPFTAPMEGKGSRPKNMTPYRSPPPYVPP
UniProt Q6EVK6, sequence (whole entry, looked up): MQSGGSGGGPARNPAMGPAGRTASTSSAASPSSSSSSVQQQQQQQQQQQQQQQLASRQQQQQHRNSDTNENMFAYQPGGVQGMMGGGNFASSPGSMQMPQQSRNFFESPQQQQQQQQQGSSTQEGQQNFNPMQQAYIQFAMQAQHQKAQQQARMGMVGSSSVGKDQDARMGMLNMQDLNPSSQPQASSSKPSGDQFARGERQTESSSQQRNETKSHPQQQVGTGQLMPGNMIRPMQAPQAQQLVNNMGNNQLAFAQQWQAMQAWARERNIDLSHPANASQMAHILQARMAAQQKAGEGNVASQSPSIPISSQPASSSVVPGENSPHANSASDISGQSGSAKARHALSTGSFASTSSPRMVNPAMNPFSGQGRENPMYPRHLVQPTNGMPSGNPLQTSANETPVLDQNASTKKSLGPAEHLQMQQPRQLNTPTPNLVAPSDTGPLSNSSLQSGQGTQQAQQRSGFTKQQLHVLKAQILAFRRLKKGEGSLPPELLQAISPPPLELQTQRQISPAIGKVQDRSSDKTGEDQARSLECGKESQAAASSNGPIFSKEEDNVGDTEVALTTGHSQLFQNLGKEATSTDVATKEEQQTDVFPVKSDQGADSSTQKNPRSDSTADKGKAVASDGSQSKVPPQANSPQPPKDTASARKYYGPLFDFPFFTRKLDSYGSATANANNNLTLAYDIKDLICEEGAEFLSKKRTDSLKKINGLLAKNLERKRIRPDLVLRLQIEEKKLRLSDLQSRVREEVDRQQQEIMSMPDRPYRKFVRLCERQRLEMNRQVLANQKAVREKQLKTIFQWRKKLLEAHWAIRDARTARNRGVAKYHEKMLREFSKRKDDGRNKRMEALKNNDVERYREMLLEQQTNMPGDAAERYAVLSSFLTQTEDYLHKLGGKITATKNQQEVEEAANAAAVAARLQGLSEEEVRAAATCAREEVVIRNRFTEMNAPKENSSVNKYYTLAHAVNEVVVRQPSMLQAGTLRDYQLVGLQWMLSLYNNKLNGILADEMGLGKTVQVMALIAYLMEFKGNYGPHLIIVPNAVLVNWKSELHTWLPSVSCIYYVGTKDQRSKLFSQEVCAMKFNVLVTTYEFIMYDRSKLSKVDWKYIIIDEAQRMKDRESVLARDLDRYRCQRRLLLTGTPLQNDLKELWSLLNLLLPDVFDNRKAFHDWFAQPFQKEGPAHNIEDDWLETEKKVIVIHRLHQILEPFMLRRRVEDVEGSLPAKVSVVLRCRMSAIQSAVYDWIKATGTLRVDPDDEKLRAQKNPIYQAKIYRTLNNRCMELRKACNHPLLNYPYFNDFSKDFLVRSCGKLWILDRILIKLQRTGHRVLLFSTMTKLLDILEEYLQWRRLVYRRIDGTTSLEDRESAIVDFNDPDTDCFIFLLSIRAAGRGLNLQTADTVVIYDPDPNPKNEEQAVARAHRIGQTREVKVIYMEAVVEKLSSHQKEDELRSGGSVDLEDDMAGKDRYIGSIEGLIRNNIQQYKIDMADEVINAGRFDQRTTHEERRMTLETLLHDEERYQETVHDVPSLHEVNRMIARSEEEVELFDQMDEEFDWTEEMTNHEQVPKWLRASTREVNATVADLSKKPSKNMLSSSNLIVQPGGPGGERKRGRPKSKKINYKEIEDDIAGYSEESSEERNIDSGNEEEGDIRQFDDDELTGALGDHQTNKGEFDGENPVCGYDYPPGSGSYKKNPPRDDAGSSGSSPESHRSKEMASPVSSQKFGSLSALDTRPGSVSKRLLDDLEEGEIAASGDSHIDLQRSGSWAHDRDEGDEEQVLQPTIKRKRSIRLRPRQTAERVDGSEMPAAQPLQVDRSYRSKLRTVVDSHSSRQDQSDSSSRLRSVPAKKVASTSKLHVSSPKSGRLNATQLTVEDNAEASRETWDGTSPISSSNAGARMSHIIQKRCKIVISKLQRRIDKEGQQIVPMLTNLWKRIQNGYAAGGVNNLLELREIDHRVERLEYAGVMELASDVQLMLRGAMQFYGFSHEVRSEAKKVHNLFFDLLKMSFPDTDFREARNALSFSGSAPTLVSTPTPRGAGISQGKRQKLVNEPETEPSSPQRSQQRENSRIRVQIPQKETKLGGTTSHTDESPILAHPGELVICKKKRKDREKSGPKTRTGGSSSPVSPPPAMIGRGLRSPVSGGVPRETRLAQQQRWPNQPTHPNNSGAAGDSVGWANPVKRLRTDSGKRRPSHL
UniProt Q92698, sequence (whole entry, looked up): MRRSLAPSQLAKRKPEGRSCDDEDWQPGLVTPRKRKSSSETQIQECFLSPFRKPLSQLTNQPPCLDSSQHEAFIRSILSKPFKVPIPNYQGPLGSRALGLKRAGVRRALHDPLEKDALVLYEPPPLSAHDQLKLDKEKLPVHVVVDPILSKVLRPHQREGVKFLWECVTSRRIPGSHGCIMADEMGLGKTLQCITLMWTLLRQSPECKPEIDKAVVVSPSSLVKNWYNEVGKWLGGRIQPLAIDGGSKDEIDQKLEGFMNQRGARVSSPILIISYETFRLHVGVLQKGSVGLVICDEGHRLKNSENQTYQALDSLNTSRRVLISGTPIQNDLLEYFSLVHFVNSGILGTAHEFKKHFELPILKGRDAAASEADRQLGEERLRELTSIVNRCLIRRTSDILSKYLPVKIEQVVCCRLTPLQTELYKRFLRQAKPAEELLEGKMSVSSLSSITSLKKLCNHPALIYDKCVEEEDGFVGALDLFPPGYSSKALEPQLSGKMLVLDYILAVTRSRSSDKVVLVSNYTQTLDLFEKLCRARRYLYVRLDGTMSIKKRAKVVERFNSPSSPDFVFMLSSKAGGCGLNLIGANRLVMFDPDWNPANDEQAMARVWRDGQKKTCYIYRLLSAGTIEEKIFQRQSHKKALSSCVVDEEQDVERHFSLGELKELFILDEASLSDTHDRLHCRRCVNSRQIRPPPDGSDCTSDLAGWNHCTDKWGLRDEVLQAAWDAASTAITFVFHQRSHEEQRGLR

RRRRKRVNTKRSSRAFRAHLRAPLKGNCTHPEDMKLCTVIMKSNGSFPVN (DRD2 217-266 (Homo sapiens, UniProt P14416))
binding (EPB41L2 939-1005 (Homo sapiens, UniProt O43491); ITC): binds

B1 (IGFBP7 30-159 Q150A)
binding (CD93 25-347 (Homo sapiens, UniProt Q9NPY3); ITC; 25 °C): binds

B2 (NUB1)
binding (PSMD2 (Homo sapiens, UniProt Q13200); cryo-EM): binds

NGVTATILEPRARVEKDYGK (gld-3 860-879 K864A (Caenorhabditis elegans, UniProt Q95ZK7); sequence looked up)
binding (fbf-2 164-575 (Caenorhabditis elegans, UniProt Q09312); fluorescence polarisation; peptide): binds

GSGAGRETEV
binding intensity (human MAGI1-3/6 PDZ construct (MBP fusion); automated holdup; peptide, crude extract; concentration not given, uncorrected, unit not given; relative to: biotin control resin, higher = stronger binding): 0.149

B3 (PduD)
binding (PduB (Salmonella enterica Typhimurium LT2, UniProt P37449); cross-linking): binds

B4 (BZR1 1-109)
binding (BRM 689-952 (Arabidopsis thaliana, UniProt Q6EVK6); GST pull-down): binds

VRN5 (Arabidopsis thaliana, UniProt Q9LHF5)
binding (COP1 (Arabidopsis thaliana, UniProt P43254); pull-down): binds

B5 (KMT2B 1-300)
binding (PRMT1 (Homo sapiens, UniProt Q99873); pull-down): binds

B6 (cysJ 237-599)
binding (cysI 1-570 (Escherichia coli, UniProt P17846); cryo-EM structure): binds

B7 (SSPN)
binding (β-dystroglycan mature, N-linked glycans (Oryctolagus cuniculus, UniProt Q28685); cryo-EM structure): binds

HDA6 (Arabidopsis thaliana, UniProt Q9FML2)
binding (PAF1 (Arabidopsis thaliana, UniProt F4HQA1); pull-down): binds

LANFLVHSSNNFGAIL (hIAPP residues 12-27 (Homo sapiens); O-GlcNAc serine)
binding (IAPP mature (Homo sapiens, UniProt P10997); SPR; peptide): binds

B8 (FERMT2 1-105)
binding (PXN 485-605 (Homo sapiens, UniProt P49023-3); NMR titration): binds

DMC1 (Homo sapiens, UniProt Q14565)
binding (RAD54L (Homo sapiens, UniProt Q92698); SPR): binds

B9 (RXRA)
binding (PIK3R1 (Bos taurus, UniProt P23727); pull-down; added: 9cRA 1 µM): binds

B10 (Arc)
binding (tau 2N4R, dephosphorylated (Homo sapiens, UniProt P10636-8); pull-down): binds

B11 (RNASE1 mature P114G/H12A)
binding (RNASE1 mature P114G/H119A (Bos taurus, UniProt P61823); SEC): binds

KDECVIATEV
normalised SPR binding response (human MAGI1-3/6 PDZ construct (MBP fusion); surface plasmon resonance; peptide; concentration not given; higher = stronger binding): 10 normalised RU

B12 (PSMG3 1-122)
binding (PSMG4 1-123 (Homo sapiens, UniProt Q5JS54); cryo-EM): binds

B13 (WDR77 1-107)
binding (PRMT5 (Homo sapiens, UniProt O14744); co-IP; in vitro): binds

B14 (PUM1 774-1186)
binding (CNOT1/CNOT2/CNOT3 C-terminal NOT module 1833-2361; pull-down): binds

B15 (SNAPC5)
binding (SNAPC2 (Homo sapiens, UniProt Q13487); cross-linking): binds

B16 (TAF4 Q1 domain, 428-492)
binding (T1, CREB1 1-100 (Rattus norvegicus); NMR): binds

Some of these lines once more:
KDECVIATEV
normalised SPR binding response (human MAGI1-3/6 PDZ construct (MBP fusion); surface plasmon resonance; peptide; concentration not given; higher = stronger binding): 10 normalised RU

B12 (PSMG3 1-122)
binding (PSMG4 1-123 (Homo sapiens, UniProt Q5JS54); cryo-EM): binds
